Published values of several laboratories.
± marks the error that the study gave.

Cc1ccc(C(=O)N(CCCN)C(c2nc3snc(C)c3c(=O)n2Cc2ccccc2)C(C)C)cc1 (centres unmarked) — patients with adverse event (stomatitis grade ≥3 (CTCAE); human patients; intravenous, 16 mg/day): 14%
Cc1ccc(Sc2ccccc2N2CCNCC2)c(C)c1 — participants with TEAE (refers to: Pollakiuria; healthy adult men; oral, 20 mg daily, 12 days): 0%
CC(C)[C@H](N)C(=O)NCCCS(=O)(=O)O — AUC(0-12) (human both sexes, plasma; oral, 340 mg once daily days 8-14, day 14, fasted capsule): 13800 ng·h/mL
CCN(CC)/C(N)=N\c1ccc(NC(=O)c2ccc(C(=O)Nc3ccc(/N=C(\N)N(CC)CC)cc3)cc2)cc1 — HC50 (haemolysis; sheep erythrocytes; 1 h, pH 7.5): > 128 µg/mL
C#CC(CC1CCC1)NS(=O)(=O)c1cccc(Cl)c1O (centres unmarked) — DLS scattered light intensity (colloidal aggregate formation, dynamic light scattering; 50 mM potassium phosphate buffer; 200 µM, pH 7.0, 1% DMSO; higher = more aggregation): 413000 counts/s
C[C@H](CCC(=O)NCC(=O)O)[C@H]1CC[C@H]2[C@@H]3[C@H](O)C[C@@H]4C[C@H](O)CC[C@]4(C)[C@H]3CC[C@]12C — daily mean concentration (human, plasma; endogenous baseline diurnal): 482 ± 64 nM
CCC(C)n1ncn(-c2ccc(N3CCN(c4ccc(OCC5COC(Cn6cncn6)(c6ccc(Cl)cc6Cl)O5)cc4)CC3)cc2)c1=O (centres unmarked) — trough plasma concentration (human, plasma; oral, dose not given, day 12 predose, geometric mean): 64 ng/mL
CC(C)N(C)c1ccc(NS(=O)(=O)c2cc(Cl)cc(Cl)c2O)cc1F — DLS scattered light intensity (colloidal aggregate formation, dynamic light scattering; 50 mM potassium phosphate buffer; 200 µM, pH 7.0, 1% DMSO; higher = more aggregation): 3.48e+07 counts/s
CCCCCCOC(=O)NC(=N)c1ccc(NCc2nc3cc(C(=O)N(CCC(=O)OCC)c4ccccn4)ccc3n2C)cc1 — participants with TEAE rhinorrhoea (human; oral, 75 mg, compound alone): 0%
O=C(Nc1nc2cccc(-c3ccc(CN4CCS(=O)(=O)CC4)cc3)n2n1)C1CC1 — treatment-emergent adverse events (refers to: infections and infestations; human rheumatoid arthritis patients; oral, 30 mg once daily, 4 weeks, regardless of relatedness): 0%
CCc1cc(C(=O)NC)c2nccc(N3CCc4c(cc(Cn5ccnc5)cc4-c4cn(C)nc4C(F)(F)F)C3=O)c2c1 — change in clinical chemistry or haematology parameter (refers to: Lymph; Sprague Dawley rat; oral, 50 mg/kg once daily, 7 days; reference: vehicle): 0.64%
Cc1nc(-c2cnc(NC(C)C)n(C)c2=O)ccc1Oc1ccnc(-c2cnn(C)c2)c1 — half-life (Beagle dog, male, plasma; oral, 10 mg/kg, crossover study, mean): 9.23 h
O=S(=O)(NCc1coc2ccc(F)cc12)c1cc(Cl)cc(Cl)c1O — DLS scattered light intensity (colloidal aggregate formation, dynamic light scattering; 50 mM potassium phosphate buffer; 200 µM, pH 7.0, 1% DMSO; higher = more aggregation): 338000 counts/s
CCN1/C(=C/C(C)=O)Sc2ccc(F)cc21 — heart rate change (cynomolgus monkey; oral, 100 mg/kg, 2 h post-dose; reference: pre-dose): 116 ± 21.5%
COc1ccc(-n2nc(C(N)=O)c3c2C(=O)N(c2ccc(N4CCCCC4=O)cc2)CC3)cc1 — CL renal/F (population PK model (NONMEM); human, plasma; oral, final model): 24.5 ± 2.13 mL/min
Cc1nc(O)n2ncc(Cl)c2n1 — HC50 (haemolysis; sheep erythrocytes; 1 h, pH 7.5): > 128 µg/mL
N#Cc1ccc2c(c1)[C@H]1CCCN(C(=O)c3ccc4[nH]cnc4c3)[C@H]1C2 — total testosterone level (human males; 40 mg, day 7): 14.6 nmol/L
CNC(=O)c1ccc(-c2cnc3ncc(Cc4ccc5ncccc5c4)n3n2)cc1F — fraction unbound (ultrafiltration; human normal hepatic function, plasma; oral, 200 mg, 3 h post-dose, geometric mean): 0.029
COc1ccc2c(c1)CN(C(=O)CCN1CCC(Cc3ccccc3)CC1)CC[S@@+]2[O-] — urinary excretion (healthy male volunteers, urine; intravenous, 0.01 mg/kg; reference: dose): 7.07 ± 1.7%
CC(C)(C(=O)N1CCOc2c(C#N)cncc2C1)C(F)F — subjects with adverse event (refers to: Dyspepsia; human; oral, 20 mg once daily, 14 days, multiple ascending dose): 0%
COc1ccnc(C(=O)O)c1O — Freundlich coefficient KF (soil adsorption; soil; pH 6.9, organic carbon 0.8 %): 208 mL/g
Cl.[2H]C([2H])([2H])CC(=O)c1cnc(NC(=O)C2CC2)cc1Nc1cccc(-c2ncn(C([2H])([2H])[2H])n2)c1OC — Ctrough (human, fed, multiple dose; oral, 40 mg twice daily, liquid formulation, day 7, geometric mean): 207 ng/mL
CC(C)NCCCC[C@@H]1NC(=O)[C@H](Cc2ccc(O)cc2)NC(=O)[C@H](Cc2ccccc2)NC(=O)CC[C@H](C(=O)N[C@@H](CCCCNC(C)C)C(=O)N[C@@H](CCCCNC(=O)[C@H](CCC(=O)O)NC(=O)[C@H](CCC(=O)O)NC(=O)[C@H](CCC(=O)O)NC(=O)CN2CCN(CC(=O)O)CCN(CC(=O)O)CCN(CC(=O)O)CC2)C(N)=O)NC(=O)CNC(=O)[C@H](Cc2ccc3ccccc3c2)NC(=O)[C@@H](CCCNC(=N)N)NC1=O [gallium-68 labelled] — tissue uptake (mouse with JeKo-1 xenograft, lung; intravenous, 1 h): 0.73 %ID/g
OC[C@H]1O[C@@H](c2ccc(Cl)c(Cc3ccc(O[C@H]4CCOC4)cc3)c2)[C@H](O)[C@@H](O)[C@@H]1O — change in Total cholesterol (Japanese type 1 diabetes patients, blood; 2.5 mg, day 28; reference: baseline): 6.54 mg/dL
Cc1c(Cl)c(C)[n+]([O-])c(Cl)c1-c1noc(-c2cc(O)c(O)c([N+](=O)[O-])c2)n1 — serious TEAE incidence (healthy Chinese subjects; oral, 25 mg): 0%
CCOc1c([C@H](C)n2nc(C)c3c(N)ncnc32)cc(Cl)c(F)c1[C@@H]1CNC(=O)C1 — observations QTcF >450 ≤480 ms (ECG; previously treated B-cell malignancy patients; oral, 20 mg once daily, baseline QTcF ≤450 ms): 4.2%
CC(=O)N(C)C1CCN(c2cc(F)cc(NC(=O)c3cc4c(F)ccc(C)c4[nH]3)c2)C1 (centres unmarked) — terminal half-life (CD1 mouse; oral, 50 mg/kg): 1.3 h
COc1c(N2C[C@@H]3CCCN[C@@H]3C2)c(F)cc2c(=O)c(C(=O)O)cn(C3CC3)c12 — QTc interval (male Hartley guinea pig, anaesthetized; intravenous, 10 mg/kg, baseline before infusion): 304 ± 0.6 ms
CN(CCC(=O)O)C(=O)c1ccc2c(c1)CC[C@@H]1[C@@H]2CC[C@]2(C)C(c3cncc(F)c3)=CC[C@@H]12 — total bilirubin (premenopausal women, endometriosis pain, serum; 60 mg twice daily, visit 4, median): 0.8 mg/dL
O=S(=O)(NCC[S+]([O-])c1ccccc1F)c1cc(Cl)cc(Cl)c1O (centres unmarked) — DLS scattered light intensity (colloidal aggregate formation, dynamic light scattering; 50 mM potassium phosphate buffer; 200 µM, pH 7.0, 1% DMSO; higher = more aggregation): 2.01e+06 counts/s
CCc1nc(C(N)=O)c(Nc2ccc(N3CCC(N4CCN(C)CC4)CC3)c(OC)c2)nc1NC1CCOCC1 — AUC(0-t) (female FVB mice, wild-type, plasma; oral, 10 mg/kg, single dose): 5350 ± 395 ng·h/mL
CCNCCCn1c2c(c3cc(OC)c(OC)cc3c1=O)C(=O)c1cc3c(nc1-2)OCO3 — Vss (male CD1 mouse, plasma; intravenous, 1 mg/kg): 17 L/kg
CCO[C@H]1CCN(Cc2c(OC)cc(C)c3[nH]ccc23)[C@H](c2ccc(C(=O)O)cc2)C1 — incidence of abdominal discomfort (PNH patients, active haemolysis; oral, 25 mg, 4 weeks, treatment): 0%
CO/N=C(\C(=O)N[C@@H]1C(=O)N2C(C(=O)[O-])=C(C[N+]3(C)CCCC3)CS[C@H]12)c1csc(N)n1 — deviation from nominal concentration (human whole blood; concentration not given, 8 h, 4 °C): 8%
COc1cc(C(=O)N2CCC3(CC2)CC(=O)c2c(cnn2C(C)C)C3)cc(-c2ccc(C(=O)O)cc2)n1 — placebo-adjusted change from baseline (refers to: HDL cholesterol; human, fasting serum; 3 mg every 12 h, day 13, adjusted geometric mean; reference: baseline and placebo): -6%
FC(F)(F)c1ccc(CNc2ccc(Cc3c[nH]c4ncc(Cl)cc34)cn2)cn1 — dry mouth incidence (patients with advanced solid tumours; oral, 1000 mg/day, TGCT cohort, grade ≥3): 0%
O=C(O)c1cccc(C(=O)O)c1 — apparent dissolution enthalpy (betaine/glycerol DES-water; DES mass fraction 0.80): 3.49 kcal/mol
O=C(CCCN1CC=C(n2c(=O)[nH]c3ccccc32)CC1)c1ccc(F)cc1 — QTc interval (male Hartley guinea pig, anaesthetized; intravenous, 0.3 mg/kg, baseline before infusion): 324 ± 0.4 ms
CNCCOC12CC3(C)CC(C)(CC(Cn4ncc(-c5ccc(N6CCc7cccc(C(=O)Nc8nc9ccccc9s8)c7C6)nc5C(=O)O)c4C)(C3)C1)C2 — PR interval change (beagle dog, male, anaesthetised; intravenous bolus, 0.03 mg/kg, 90 min; reference: baseline): -5 ms
CC[C@H](C)[C@H](NC(=O)[C@H](Cc1ccccc1)NC(=O)[C@H](CCC(=O)O)NC(=O)[C@H](CCCCNC(=O)COCCOCCNC(=O)COCCOCCNC(=O)CC[C@H](NC(=O)CCCCCCCCCCCCCCCCC(=O)O)C(=O)O)NC(=O)[C@H](C)NC(=O)[C@H](C)NC(=O)[C@H](CCC(N)=O)NC(=O)CNC(=O)[C@H](CCC(=O)O)NC(=O)[C@H](CC(C)C)NC(=O)[C@H](Cc1ccc(O)cc1)NC(=O)[C@H](CO)NC(=O)[C@H](CO)NC(=O)[C@@H](NC(=O)[C@H](CC(=O)O)NC(=O)[C@H](CO)NC(=O)[C@@H](NC(=O)[C@H](Cc1ccccc1)NC(=O)[C@@H](NC(=O)CNC(=O)[C@H](CCC(=O)O)NC(=O)C(C)(C)NC(=O)[C@@H](N)Cc1cnc[nH]1)[C@@H](C)O)[C@@H](C)O)C(C)C)C(=O)N[C@@H](C)C(=O)N[C@@H](Cc1c[nH]c2ccccc12)C(=O)N[C@@H](CC(C)C)C(=O)N[C@H](C(=O)N[C@@H](CCCNC(=N)N)C(=O)NCC(=O)N[C@@H](CCCNC(=N)N)C(=O)NCC(=O)O)C(C)C — diastolic blood pressure change (hypoglycaemic clamp; type 2 diabetes patients; dose not given, plasma glucose 5.5 to 3.5 mmol/L): -4.2 mmHg
NC(=O)N1c2ccccc2CC(O)c2ccccc21 (centres unmarked) — Kbt bootstrap median (human; popPK model): 0.0374 h⁻¹
CNC(=O)COc1ccc(NS(=O)(=O)c2cc(Cl)cc(Cl)c2O)cc1 — DLS scattered light intensity (colloidal aggregate formation, dynamic light scattering; 50 mM potassium phosphate buffer; 200 µM, pH 7.0, 1% DMSO; higher = more aggregation): 2.86e+07 counts/s
CCCOc1ccc(-c2ccc(C#N)cc2)cc1 — concentration (refers to: compound; human pregnant women, male fetuses, cord serum; dose not given, paired maternal-cord samples, mean): 1.34 ng/mL
C[C@@H](Nc1cc(F)cc(F)c1)c1cc(C(=O)N(C)C)cc2c(=O)cc(N3CCOCC3)oc12 — AUC(0-12) (human, plasma; oral, 180 mg single dose, day 1, range, 5:2 twice daily schedule): 4940 to 8540 ng·h/mL
